Experimental data from different studies.
Protocols differ between the studies behind these lines. Several values in a cell are separate wells, animals, samples, runs or records. Numbers after ± are the reported error.

Cc1nc(Nc2ccc(CC(=O)O)cc2)nc(Nc2ccc(F)c(C(F)(F)F)c2)c1C — result for serum AST: “decreased” (mice, chronic ethanol plus binge; intraperitoneal, 0.3 mg/kg daily, ethanol diet 4 weeks, dosed last two; relative to: vehicle).
C=CC(=O)Nc1cc(Nc2ncc(Cl)c(Nc3ccccc3C(=O)C(=O)N(C)C)n2)c(OC)cc1N1CCN(C)CC1: “patients with complete response” 0% (RECIST v1.1 best response; human EGFR T790M NSCLC; oral, 50 mg/day, per-protocol set).
With C[C@H]1O[C@@H](O[C@H]2CC[C@@]3(C)[C@@H](CC[C@]4(C)[C@@H]3C=C[C@]35OC[C@@]6(CCC(C)(C)C[C@H]63)[C@@H](O)C[C@]54C)[C@]2(C)CO)[C@H](O)[C@@H](O[C@@H]2O[C@H](CO)[C@@H](O)[C@H](O)[C@H]2O)[C@H]1O the protein level was 0.952 and 0.52 and 0.551 (Western blot, item: PPAR-α; mouse, AAV8-TBG-Null control vector, liver; dose not given, high dose, unit not given, added: ethanol; relative to: β-actin).
CC(C)CCCCCCCCC[C@@H]1CC(=O)N[C@@H](CCC(=O)O)C(=O)N[C@@H](CC(C)C)C(=O)N[C@H](CC(C)C)C(=O)N[C@@H](C(C)C)C(=O)N[C@@H](CC(=O)O)C(=O)N[C@H](CC(C)C)C(=O)N[C@@H](CC(C)C)C(=O)O1 gave a maximum fusion of 59 ± 4% (calcein leakage; DOPC/CHOL liposomes; concentration not given, added: 20 wt% PEG-8000).
For CC(C)(O)c1cnc2ncc(-c3ccc(F)c(-c4c(F)cccc4C#N)c3)n2n1, “minimum effective dose” read 1 mg/kg (food-maintained responding; rhesus monkey; intramuscular, acute dependence model, added: midazolam pretreatment 30 min; relative to: midazolam alone).
[131I-].[Na+]: “lymph nodal recurrence” 9.1% (paediatric patients, differentiated thyroid carcinoma, intermediate risk; dose not given, retrospective).
Under “median progression-free survival”, C[C@H](NC(=O)c1c(C(F)F)nn(C)c1Oc1cccc(C(F)(F)F)c1)c1ccc(C(=O)O)cc1 is recorded as 1.4 months (human, advanced tumours; 250 mg).
CC[C@H](C)[C@@H]1NC(=O)[C@@H]2CCCN2C(=O)[C@H](CC(C)C)NC(=O)[C@H](CC(C)C)NC(=O)CNC(=O)[C@@H](NC(=O)[C@@H](NC(=O)[C@H](CC(=O)O)NC(=O)CNC(=O)[C@@H](NC(=O)[C@H](C)NC(=O)CNC(=O)[C@H](CCCCN)NC(=O)[C@H](CC(C)C)NC(=O)[C@H](CC(C)C)NC(=O)[C@H](CCCCN)NC(=O)CNC(=O)[C@@H](NC(=O)[C@@H](N)CC(C)C)C(C)C)C(C)C)C(C)C)CSSC[C@@H](C(=O)O)NC1=O: “log2 fold change” 0.617 (RNA-seq, item: Dclre1a; mouse, traumatic brain injury model, frontal cortex and hippocampus; dose not given; relative to: TBI alone).
CN1CCN(S(=O)(=O)c2cc([N+](=O)[O-])ccc2N(CCOS(C)(=O)=O)CCOS(C)(=O)=O)CC1 — result for “EFS ratio (T/C)”: > 73.8 (NSG mice, sample BJ PDX; intraperitoneal, 25 mg/kg weekly x3; relative to: treated over vehicle).
Cc1cn(-c2cc(NC(=O)c3ccc(C)c(Nc4nccc(-c5cccnc5)n4)c3)cc(C(F)(F)F)c2)cn1 — result for “mean difference in change”: 1 (item: NPI caregiver distress score; human; dose not given, 6 months versus baseline, unit not given; relative to: placebo).
For C=CCNc1c(O)cc2c(O)c1C[C@@H](C)C[C@H](OC)[C@H](O)[C@@H](C)/C=C(\C)[C@H](OC(N)=O)[C@@H](OC)/C=C\C=C(/C)C(=O)N2, “patients with metabolic progression” read 7% (18F-FDG PET EORTC criteria; human GIST; concentration not given, best response).
Under “urine flow rate”, CNC(=O)CC1C(=O)N(C2CCN(C3CCC(C(C)C)CC3)CC2)c2ccccc21 (centres unmarked) is recorded as “increased” (conscious Sprague-Dawley rat; intravenous bolus, 100 nmol/kg).
[Cl][Ru-]([Cl])([Cl])[Cl].[Na+].c1ccc2[nH]ncc2c1.c1ccc2[nH]ncc2c1 — result for “maximum change in target lesions”: -30% (CT, RECIST 1.1; human; 320 mg/m2; relative to: baseline).
With CCCCC1(CCCC)CN(c2ccccc2)c2cc(SC)c(OCC(=O)N[C@@H](C(=O)NCC(=O)O)c3ccccc3)cc2S(=O)(=O)C1 the serum LDL-C was 82.9 mg/dL (item: LDL cholesterol; human, serum; 20 mg once daily, day 5).
For O=C(O)Cc1c[nH]cn1, “z-scored log2 fold change” read 0.11 (binding, equilibrium dialysis LC-MS; 5 µM, thermostabilized A2AR-BRIL construct; relative to: no-protein control, direction not given).
CCCc1nn(C)c2c(=O)[nH]c(-c3cc(S(=O)(=O)N4CCN(C)CC4)ccc3OCC)nc12 — result for “mean serum uric acid”: 6.97 mg/dL (human patients on drug, serum or plasma; dose not given, on:off matching 1:10; relative to: off-drug patients, 5.94 mg/dL).
Under “best response progressive disease”, CC(=O)c1c(C)c2cnc(Nc3ccc(C4CCN(CCS(C)(=O)=O)CC4)cn3)nc2n(C2CCCC2)c1=O is recorded as 0% (RECIST v1.1; HR+/HER2- advanced breast cancer patients; 100 mg twice daily, phase Ib monotherapy arm).
Under “z-scored log2 fold change”, CN(CC(=O)O)C(=N)NP(=O)(O)O is recorded as 0.204 (binding, equilibrium dialysis LC-MS; 5 µM, thermostabilized A2AR-BRIL construct; relative to: no-protein control, direction not given).
The maximum fusion of CCCCCCCCCCCCCCCC(=O)N[C@H]1C[C@@H](O)[C@@H](O)NC(=O)[C@@H]2[C@@H](O)[C@@H](C)CN2C(=O)[C@H]([C@@H](C)O)NC(=O)[C@H]([C@H](O)[C@@H](O)c2ccc(O)cc2)NC(=O)[C@@H]2C[C@@H](O)CN2C(=O)[C@H]([C@@H](C)O)NC1=O is reported as 10 ± 6% (calcein leakage; DOPC/DOPG/CHOL liposomes; concentration not given, added: 40 mM CaCl2).
Under protein level, CC[C@H](C)[C@H](NC(=O)[C@H](CCC(=O)O)NC(=O)[C@H](CCCNC(=N)N)NC(=O)[C@H](CCCNC(=N)N)NC(=O)[C@H](CCCNC(=N)N)NC(=O)[C@H](CCC(N)=O)NC(=O)[C@H](CCCNC(=N)N)NC(=O)[C@H](CCCNC(=N)N)NC(=O)[C@H](CCCCN)NC(=O)[C@H](CCCCN)NC(=O)[C@H](CCCNC(=N)N)NC(=O)CNC(=O)[C@H](Cc1ccc(O)cc1)NC(C)=O)C(=O)N[C@@H](CC(=O)O)C(=O)N[C@@H](Cc1c[nH]cn1)C(=O)N[C@@H](CC(=O)O)C(N)=O is recorded as “decreased” (immunoblot, item: phospho-RIPK1, caspase-8, IL-1β, IL-18, IL-6; db/db mouse, hippocampus; intravenous, dose not given, 6 weeks, weekly).
